Values quoted from earlier work, collected from citations in different studies.
Lines come from different studies, so protocols differ. ± marks the error that the study gave. Converted amounts (≈) assume the structure as drawn.

SMILES	tested on	assay	test system	setting	scale	quantity	value
CNC[C@H](O)[C@@H](O)[C@H](O)[C@H](O)CO.O=C([O-])CN1CCN(CC(=O)[O-])CCN(CC(=O)O)CCN(CC(=O)[O-])CC1.[Gd+3]			human plasma	310 K, 1.41 T		relaxivity r1	3.6 mM⁻¹ s⁻¹
C[N+]1(C)CCC(OC(=O)C(O)(c2ccccc2)C2CCCC2)C1 (stereo not drawn)			COPD patients	inhaled, 100 µg once daily, 24 h postdose, dosing day 7	relative to: baseline	placebo-corrected trough FEV1 change	141 mL
Cc1cc(-c2nccc3c2ccn3CC(=O)Nc2ccc(-c3cnccn3)cn2)ccn1		measured: Ashcroft score	rat, bleomycin-induced pulmonary fibrosis	10 days once daily		dose inhibiting fibrosis	≥ 10 mg/kg
COC[C@@H](c1ccc(C(F)(F)F)cc1)N1CCN(C2(C)CCN(C(=O)c3c(C)ncnc3C)CC2)C[C@@H]1C			treatment-naive HIV subjects	50 mg once daily, day 14, monotherapy without ritonavir		HIV RNA reduction	1.18 log10 copies/mL
CCc1nccnc1OC			human, water			odour detection threshold	0.43 µg/kg
CCc1cc2c(cc1CC)CC(NC[C@H](O)c1ccc(O)c3[nH]c(=O)ccc13)C2			COPD patients	inhaled, 300 µg once daily, 24 h postdose, dosing day 182	relative to: baseline	placebo-corrected trough FEV1 change	180 mL
COCCCc1cc(C(F)(F)F)ccc1CNC(=O)Nc1cccc2[nH]ncc12	TRPV1	calcium flux, antagonist	HEK293	together with: capsaicin		IC50	8 nM
C[C@H]1COCCN1c1nc(-c2cnc(N)cc2C(F)F)nc(N2CCOCC2)n1	U-87 MG					GI50	546 nM
Cc1ccc(Nc2nccc(N(C)c3ccc4c(C)n(C)nc4c3)n2)cc1S(N)(=O)=O			post-chemotherapy soft tissue sarcoma	dose not given		progression-free survival	4.6 months
Cc1c(C#N)cccc1[C@@H](C)Nc1nnc(C)c2cnc(N3CCOCC3)cc12	NCI-H1975	3D cell viability		14 d		IC50	15.2 ± 8 nM
COc1ccccc1[C@H](Cn1c(=O)n(C(C)(C)C(=O)O)c(=O)c2c(C)c(-c3ncco3)sc21)OC1CCOCC1		hepatic de novo lipogenesis	rat	maximal inhibition		EDmax	3 mg/kg
CNC(C)C1CCC(N)C(OC2C(N)CC(N)C(OC3OCC(C)(O)C(NC)C3O)C2O)O1 (stereo not drawn)	Pseudomonas aeruginosa		clinical isolate RKI-No_221/16			MIC	4 µg/mL (≈ 8.38 µM)
Nc1cccc2c1C(=O)N(C1CCC(=O)NC1=O)C2=O (stereo not drawn)			relapsed refractory multiple myeloma patients	dose not given, bortezomib and lenalidomide refractory		partial response or better rate	16%
Cc1ccc(C)c(OCCCC(C)(C)C(=O)O)c1			HIV-infected patients starting therapy, plasma	dose not given		triglyceride decrease	44.2%
C[N+]1(C)[C@@H]2C[C@@H](OC(=O)C(O)(c3cccs3)c3cccs3)C[C@H]1[C@@H]1O[C@@H]12			COPD patients	inhaled, 36 µg once daily, 6 h postdose, dosing day 7	relative to: baseline	placebo-corrected trough FEV1 change	150 mL
CC1(C)S[C@@H]2[C@H](NC(=O)[C@H](N)c3ccccc3)C(=O)N2[C@H]1C(=O)O	Pseudomonas aeruginosa		clinical isolate RKI-No_321/16			MIC	> 16 µg/mL
COc1cc(NC(=O)CCN2CCC(OC(=O)Nc3ccccc3-c3ccccc3)CC2)c(Cl)cc1CNC[C@H](O)c1ccc(O)c2[nH]c(=O)ccc12			COPD patients	inhaled, 100 µg twice daily, 12 h postdose, dosing day 1	relative to: baseline	placebo-corrected trough FEV1 change	92 mL
C[C@@]12C[C@@]3(O)O[C@@H](O1)[C@]1(COC(=O)c4ccccc4)[C@H]3C[C@@]12O[C@@H]1O[C@H](CO)[C@@H](O)[C@H](O)[C@H]1O		antithrombotic effect	rat thrombosis model	intravenous		effective dose	10 mg/kg
CC(=O)O[C@@]12CO[C@@H]1C[C@H](O)[C@@]1(C)C(=O)[C@H](O)C3=C(C)[C@@H](OC(=O)[C@H](O)[C@@H](NC(=O)OC(C)(C)C)c4ccccc4)C[C@@](O)([C@@H](OC(=O)c4ccccc4)[C@H]21)C3(C)C			human gastric or GEJ adenocarcinoma	dose not given, trial		overall survival	7.7 months
Nc1cc(C(F)(F)F)c(-c2nc(N3CCOCC3)nc(N3CCOCC3)n2)cn1	DYRK1B (Homo sapiens, UniProt Q9Y463)	enzyme activity		10 µM	relative to: untreated	remaining activity	61%
CC1(C)CCC(CN2CCN(c3ccc(C(=O)NS(=O)(=O)c4ccc(NCC5CCOCC5)c([N+](=O)[O-])c4)c(Oc4cnc5[nH]ccc5c4)c3)CC2)=C(c2ccc(Cl)cc2)C1			human, newly diagnosed AML	concentration not given, together with: decitabine		complete remission rate	54%

Some of these lines once more:
SMILES	tested on	assay	test system	setting	scale	quantity	value
C[N+]1(C)CCC(OC(=O)C(O)(c2ccccc2)C2CCCC2)C1 (stereo not drawn)			COPD patients	inhaled, 100 µg once daily, 24 h postdose, dosing day 7	relative to: baseline	placebo-corrected trough FEV1 change	141 mL
CC1(C)S[C@@H]2[C@H](NC(=O)[C@H](N)c3ccccc3)C(=O)N2[C@H]1C(=O)O	Pseudomonas aeruginosa		clinical isolate RKI-No_321/16			MIC	> 16 µg/mL
